Assay results collected from several papers.
Each line is one published result; not all experiments were run side by side.
Chain of UniProt Q92630 (whole entry, looked up): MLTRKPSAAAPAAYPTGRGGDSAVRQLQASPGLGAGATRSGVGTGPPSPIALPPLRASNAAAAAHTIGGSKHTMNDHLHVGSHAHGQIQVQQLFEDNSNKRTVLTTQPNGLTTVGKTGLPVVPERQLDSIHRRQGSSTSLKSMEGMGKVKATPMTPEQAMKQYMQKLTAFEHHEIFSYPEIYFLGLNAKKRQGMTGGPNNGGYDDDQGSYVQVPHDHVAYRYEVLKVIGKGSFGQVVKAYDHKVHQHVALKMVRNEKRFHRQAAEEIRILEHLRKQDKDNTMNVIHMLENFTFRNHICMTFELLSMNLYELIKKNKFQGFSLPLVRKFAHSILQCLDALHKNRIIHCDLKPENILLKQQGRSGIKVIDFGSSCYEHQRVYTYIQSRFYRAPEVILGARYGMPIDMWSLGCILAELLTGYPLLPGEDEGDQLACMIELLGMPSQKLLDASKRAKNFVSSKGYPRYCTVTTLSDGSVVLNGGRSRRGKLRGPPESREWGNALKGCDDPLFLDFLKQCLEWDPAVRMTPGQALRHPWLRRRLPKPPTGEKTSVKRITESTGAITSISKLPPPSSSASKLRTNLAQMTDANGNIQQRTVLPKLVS
Chain of UniProt O15197 (whole entry, looked up): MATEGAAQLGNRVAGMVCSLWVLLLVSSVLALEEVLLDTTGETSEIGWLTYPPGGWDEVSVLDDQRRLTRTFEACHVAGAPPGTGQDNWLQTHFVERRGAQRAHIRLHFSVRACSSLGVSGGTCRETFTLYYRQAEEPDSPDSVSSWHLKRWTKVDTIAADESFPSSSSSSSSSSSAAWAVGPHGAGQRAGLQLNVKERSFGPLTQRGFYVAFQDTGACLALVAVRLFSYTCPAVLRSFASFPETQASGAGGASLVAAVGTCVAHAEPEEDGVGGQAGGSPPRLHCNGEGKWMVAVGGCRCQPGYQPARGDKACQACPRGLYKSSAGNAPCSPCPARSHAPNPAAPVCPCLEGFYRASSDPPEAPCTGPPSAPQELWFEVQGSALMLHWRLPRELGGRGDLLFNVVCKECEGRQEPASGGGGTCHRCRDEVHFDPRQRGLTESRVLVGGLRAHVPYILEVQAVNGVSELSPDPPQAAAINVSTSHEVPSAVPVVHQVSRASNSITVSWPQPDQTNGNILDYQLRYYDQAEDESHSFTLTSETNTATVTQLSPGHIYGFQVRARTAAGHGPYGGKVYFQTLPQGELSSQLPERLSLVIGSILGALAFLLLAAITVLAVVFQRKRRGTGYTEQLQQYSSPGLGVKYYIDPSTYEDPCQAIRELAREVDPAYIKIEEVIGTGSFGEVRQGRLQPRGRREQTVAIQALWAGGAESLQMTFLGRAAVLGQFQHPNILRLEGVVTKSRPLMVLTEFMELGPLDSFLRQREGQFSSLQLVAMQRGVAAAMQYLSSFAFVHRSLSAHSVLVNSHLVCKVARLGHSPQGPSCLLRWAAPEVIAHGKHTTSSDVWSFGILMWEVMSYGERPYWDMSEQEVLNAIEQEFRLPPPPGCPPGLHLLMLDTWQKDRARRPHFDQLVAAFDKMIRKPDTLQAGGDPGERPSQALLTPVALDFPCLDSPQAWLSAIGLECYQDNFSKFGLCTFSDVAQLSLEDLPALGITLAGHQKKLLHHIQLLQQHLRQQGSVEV

SMILES | target or system | test | system | conditions | endpoint | result
COc1ccc(-c2cc(C(F)(F)F)c3c(N)c(C(=O)N4CC(OC)C4)sc3n2)cc1 | Mycobacterium tuberculosis | microbial growth | H37RV | – | IC50 | > 100 µM
COc1ccc(Cl)c2c1NC(=O)C2NC(C)=O (stereo not shown) | PFF0160c (Plasmodium falciparum, UniProt Q08210) | enzyme activity, inhibitor, absorbance | – | – | IC50 | > 10 µM
COc1cnc(OC)n2nc(NS(=O)(=O)c3c(OCC(F)F)cccc3C(F)(F)F)nc12 | HaCaT | cell growth or viability, CCK-8 | – | 0.78 µM, 72 h | inhibition | 0.4%
[2H]c1c([2H])c([C@]2([2H])CCCN2C(=O)C(C)(C)Oc2ccc3cn[nH]c3c2)c([2H])c([2H])c1C([2H])([2H])[2H] | DYRK2 (Homo sapiens, UniProt Q92630) | binding, competition with immobilised ligand | – | 1 µM | remaining binding | 93%
N.N.[Cl][Pt][Cl] | SUP-B15 | cell growth or viability, ATP luminescence | – | 72 h | IC50 | 1.67 µM
Nc1ncc(-c2nc(N3CCOCC3)nc(N3CCOCC3)n2)c(C(F)F)n1 | EPHB6 (Homo sapiens, UniProt O15197) | cell-free assay, competition with immobilised ligand | – | 10 µM | remaining binding | 50%
Cc1cc(Nc2ccc(C)c(Cl)c2)n2nc(C(F)(F)F)nc2n1 | PFF0160c (Plasmodium falciparum, UniProt Q08210, E182D) | enzyme activity, inhibitor, absorbance | – | – | IC50 | 0.156 µM
Nc1c(C(=O)NC23CC4CC(CC(C4)C2)C3)sc2nc(-c3ccc4c(c3)OCO4)cc(C(F)(F)F)c12 | Mycobacterium tuberculosis | microbial growth | H37RV | – | IC50 | 0.57 µM
COC(=O)c1cc(-c2cccc(NC(=S)Nc3ccccc3)c2)on1 | Klebsiella pneumoniae | microbial growth, broth dilution | BAA1705 | – | MIC | > 64 µg/mL
CCNC(=O)c1sc2nc(-c3ccc(Cl)cc3Cl)cc(C(F)(F)F)c2c1N | Mycobacterium tuberculosis | microbial growth | H37RV | – | IC50 | > 100 µM
COC(=O)c1cc(-c2cccc(NC(=S)Nc3ccc(F)cc3F)c2)on1 | Klebsiella pneumoniae | microbial growth, broth dilution | BAA1705 | – | MIC | > 64 µg/mL
Nc1c(C(=O)NCc2ccccc2)sc2ncccc12 | Mycobacterium tuberculosis | microbial growth | H37RV | – | IC50 | > 100 µM
COC(=O)c1cc(-c2cccc(NC(=S)Nc3cc(C(F)(F)F)cc(C(F)(F)F)c3)c2)on1 | Mycolicibacterium fortuitum | microbial growth, broth dilution | ATCC6841 | 48 h | MIC | > 64 µg/mL
CCOC(=O)C1=C[C@@H](OC(CC)CC)[C@H](NC(C)=O)[C@@H](N)C1 | Human coronavirus 229E | cytopathic effect | A549 | 12.5 µM | inhibition | 52.8%
COC(=O)c1cc(-c2cccc(NC(=S)Nc3ccc(F)cc3)c2)on1 | Klebsiella pneumoniae | microbial growth, broth dilution | BAA1705 | – | MIC | > 64 µg/mL
O=c1cc(CSc2ccc(N=Cc3ccccc3Cl)cc2)occ1O | – | DPPH scavenging, absorbance | – | 30 min | IC50 | 88.1 µM

For quick reference, copied from above:
SMILES | target or system | test | system | conditions | endpoint | result
CCNC(=O)c1sc2nc(-c3ccc(Cl)cc3Cl)cc(C(F)(F)F)c2c1N | Mycobacterium tuberculosis | microbial growth | H37RV | – | IC50 | > 100 µM
Nc1c(C(=O)NCc2ccccc2)sc2ncccc12 | Mycobacterium tuberculosis | microbial growth | H37RV | – | IC50 | > 100 µM
